# Results from different studies.
# Compare with care: the assays were run in different laboratories. Values joined by “and” are separate records of one study, mostly repeats; a detail may differ.
# Target: TGF-beta receptor type-1 (TGFBR1, Homo sapiens, UniProt P36897)
Compound,assay,system,conditions,how to read,endpoint,result
CCN1CCN(Cc2ccc(C(=O)Nc3ccc(C)c(NCc4cnc5[nH]ccc5c4OC)c3)cc2C(F)(F)F)CC1,"binding, competition with immobilised ligand",,1 µM,,remaining binding,100%
CN1CCN(Cc2ccc(NC(=O)c3cccc(C#Cc4cnc(N)c5ncccc45)c3)cc2C(F)(F)F)CC1,"cell-free assay, competition with immobilised ligand",,0.5 µM,,remaining binding,100%
CN1CCN(Cc2ccc(-c3ccc(CO[C@H]4CCC[C@@H]4NC(=O)c4cc(-c5cnn(C)c5)cnc4N)cc3)cc2)CC1,"enzyme activity, inhibitor",,0.1 µM,,inhibition,3%
COc1ccc(NC(=O)Nc2ccc3c(c2)C(=O)N(C(C)CO)CC(C)C(CN(C)Cc2ccc4c(c2)OCO4)O3)cc1 (centres unmarked),"binding, competition with immobilised ligand",,10 µM,,remaining binding,100%
COc1c(Cl)cccc1Nc1c(-c2ccncc2C#C[C@@]2(C)CCCN2C(=O)/C=C/CN(C)C)[nH]c2c1C(=O)NCC2,"cell-free assay, competition with immobilised ligand",,3 µM,,remaining binding,89%
CC(C)=CC1OC(C)(C)C2C=C3C(=O)C(Cl)=CC(O)C3C3C(O)C4OC4C(=O)C132 (centres unmarked),"cell-free assay, competition with immobilised ligand",,10 µM,,remaining binding,80%
O=C(Cc1ccc(OCc2ccccc2)cc1)NC1(C(=O)O)CCN(C(=O)c2ccc(-c3cccc(Cl)c3)cc2)CC1,"enzyme activity, inhibitor",,10 µM,,activity vs control,102%
CNC(=O)C1CCN(c2cc(C)c(F)cc2NC(=O)c2ccc(-c3cc(O)ccc3C)c(C)c2)CC1,"binding, competition with immobilised ligand",,1 µM,,remaining binding,94%
Cc1ccc(C(=O)Nc2ccc(CN3CCN(C)CC3)c(C(F)(F)F)c2)cc1C#Cc1cnc2cccnn12,"target engagement, NanoBRET",human cells,,,Hill slope,-0.413
C=CC(=O)N1Cc2nc(-c3cc(-c4cc(Cl)cnc4Cl)c(F)cc3F)n(-c3ccncn3)c2C1,cell-free assay,,1 µM,,inhibition,4.1%
Cc1ccc(-c2c(/C=C(\C#N)C(=O)NC(C)C)n(CCCO)c3ncnc(N)c23)cc1,"cell-free assay, competition with immobilised ligand",,1 µM,,remaining binding,87%
COc1cc(Nc2nccc(-c3cnn4nc(OC)ccc34)n2)cc(C(F)(F)F)c1,"binding, competition with immobilised ligand",,1 µM,,remaining binding,82%
COCC12C(=O)NC3C4(C(OC)CC1O)C1CC5(O)C(OC)C(O)C(OC(C)=O)(C1C5OC(=O)c1ccccc1)C3(O)C(OC)C24 (centres unmarked),"kinase activity, inhibitor, ProQinase kinase profiling",,25 µM,reference: control,remaining activity,88% and 100%
NC(=O)C[C@H]1CCc2sc3ncnc(O[C@H]4CC[C@H](N5CCOCC5)CC4)c3c21,"enzyme activity, inhibitor",,10 µM,,inhibition,-3%
C=CC(=O)N1CCCC(n2c(=O)c3ncccc3n(Cc3ccc(Oc4ccccc4)cc3)c2=O)C1 (centres unmarked),"cell-free assay, competition with immobilised ligand",,1 µM,,remaining binding,95%
C=CC(=O)N1CCc2ccc(-n3c(=O)ccc4cnc5ccc(-c6cnn(C)c6)cc5c43)cc21,KINOMEscan,,1 µM,reference: DMSO control,remaining binding,96%
Nc1ncc(-c2cc(-c3cnn(CC(F)(F)F)c3)ncc2F)nc1C(=O)NC1CNCC(F)C1 (centres unmarked),enzyme activity,,1 µM,reference: DMSO control,remaining activity,106%

# Repeated from above:
Compound,assay,system,conditions,how to read,endpoint,result
NC(=O)C[C@H]1CCc2sc3ncnc(O[C@H]4CC[C@H](N5CCOCC5)CC4)c3c21,"enzyme activity, inhibitor",,10 µM,,inhibition,-3%
COCC12C(=O)NC3C4(C(OC)CC1O)C1CC5(O)C(OC)C(O)C(OC(C)=O)(C1C5OC(=O)c1ccccc1)C3(O)C(OC)C24 (centres unmarked),"kinase activity, inhibitor, ProQinase kinase profiling",,25 µM,reference: control,remaining activity,88% and 100%
